Results pooled from the literature.
Lines come from different studies, so protocols differ. “And” joins repeats or separate records; there may be more than shown. ± gives the spread as reported.

| Compound | test | test system | conditions | how to read | endpoint | value |
| --- | --- | --- | --- | --- | --- | --- |
| CC(C)c1ccc(N(C)c2ccc3c(c2)OCC[C@H]3CNc2cnccc2C(=O)O)cc1 | – | mouse, OCI-LY19 xenograft | 5 mg/kg QD, day 21 | – | tumour growth inhibition | 55% |
| CO.COc1ccc2c(c1)c(CC(=O)[O-])c(C)n2C(=O)c1ccc(Cl)cc1.COc1ccc2c(c1)c(CC(=O)[O-])c(C)n2C(=O)c1ccc(Cl)cc1.O.[Co+2].c1ccc(Nc2ccccn2)nc1 | ABTS | DMSO | concentration not given | – | ABTS radical cation scavenging | 95.17 ± 0.24% |
| COC1CN([C@H]2CC[C@H]([C@@]3(C)Oc4c(Cl)cc(C(=O)NCc5c(SC)cc(C)[nH]c5=O)c(C)c4O3)CC2)C1 | RNA-seq, measured: CRIM1 | human, whole blood | dose not given, 24 h | reference: pretreatment baseline | log2 fold change | 1.27 |
| COc1ccc(NC(=O)c2ccc3[nH]c(-c4ccc(N(C)C)cc4)nc3c2)cn1 | – | Lewis lung carcinoma, mice, syngeneic graft, subcutaneous | intraperitoneal, 25 mg/kg daily, day 3 | – | tumour volume | 150 mm3 and 306 mm3 and 131 mm3 and 352 mm3 |
| O=[N+]([O-])[O-].O=c1c(C=NN=C([S-])Nc2ccccc2)coc2ccccc12.[Cu+2].c1ccc(-c2ccccn2)nc1 | DNA cleavage | supercoiled pUC19 DNA | 100 µM, 4 h, 37 °C, no reducing agent, with: DNA 40 µM | – | nicked circular DNA form | 10% |
| COc1ccc(C(=O)CCc2cc(C(CCc3ccc(O)cc3OC)c3ccc(O)cc3)c(O)cc2OC)cc1 (racemic) | – | human blood | 10 µM, with: A23187 | – | PGD2 level | 4 ± 4 pg/mL |
| COc1ccccc1-c1ccncc1C(=O)Nc1nnc(OCc2ccc(Cl)cc2)s1 | – | Brca1 Δ11/Δ11 Polq-/- MEF, Mus musculus | 5 µM | reference: 0 µM | colony survival | 90.3% |
| N[C@@H](CNC(=O)N[C@@H](CS)C(=O)NCC(=O)O)C(=O)O | Western blot | mouse C57BL/6, Aβ i.c.v. model, brain | intranasal, dose not given | – | AGE accumulation | decreased |
| COc1cnc2cccc(N3CCc4c(cc(Cn5ccnc5)cc4-c4cn(C)nc4C(F)(F)F)C3=O)c2c1 | – | BALB/c nude mice, MV4-11 xenograft | intraperitoneal, 100 mg/kg, day 10 | – | tumour volume | 163 mm3 and 106 mm3 and 155 mm3 and 158 mm3 and 142 mm3 |
| COc1ccc2cc3[n+](cc2c1OCCCOC(=O)c1cscn1)CCc1cc2c(cc1-3)OCO2 | – | hyperlipidemic hamster | oral gavage, 24 mg/kg daily, 3 weeks | – | plasma LDL-C reduction | 54.6% |
| CC[C@H](C)[C@H](NC(=O)[C@@H](NC(=O)c1ccnc(Cl)c1Cl)C(C)(C)C)C(=O)N[C@H](C(=O)N[C@H](C(=O)N[C@H](C(=O)N[C@@H](CCC(N)=O)C(=O)N[C@@H](Cc1c[nH]cn1)C(=O)N[C@H](CC(C)C)C(=O)N[C@@H](CO)C(=O)NCCOCCOCC(=O)N[C@@H](CCCCNC(=O)CC[C@@H]1NC(=O)[C@@H](CCCNC(=N)N)NC(=O)[C@H](CCCNC(=N)N)NC(=O)[C@@H](CCCNC(=N)N)NC(=O)[C@H](CCCNC(=N)N)NC(=O)[C@H](Cc2ccc3ccccc3c2)NC(=O)[C@@H](Cc2ccccc2)NC1=O)C(N)=O)[C@@H](C)O)[C@@H](C)CC)C(C)(C)O | – | mouse, acute lung injury, LPS-induced | intranasal, 3 mg/kg, 6 h, with: LPS 4 mg/kg intranasal | reference: vehicle | BALF protein level | decreased |
| CN1CCCNC(=O)c2cccc(c2)C(=O)NCCCN(C)CCCNc2cccc3c2C(=O)c2cccc(c2C3=O)NCCC1 | – | KSN/Slc nude mice, SAS xenograft | dose not given, day 8, 192 h | – | tumour volume | 233 mm3 and 281 mm3 and 250 mm3 and 136 mm3 |
| O=S(=O)(NCc1ccncc1)c1ccc(C2CCCCC2)cc1 | Y maze | CK-p25 mice | ip, 0.3 mg/kg daily, 6 wk | above chance | novel arm preference | 18.7 ± 11.7% |
| COc1cc(O)ccc1CCC(c1ccc(O)cc1)c1cc2c(c(C)c1O)OC(c1ccc(O)cc1)CC2 (mixture of isomers) | – | human blood | 10 µM, with: A23187 | – | 5-HEPE level | 35 ± 17 pg/mL |
| COc1cc(N2CCN(C(=O)C3CCCN3)CC2)ccc1Nc1ncc(Cl)c(Nc2ccccc2P(C)(C)=O)n1 (stereo not shown) | – | nude mice, NCI-H3122 xenograft | oral, 25 mg/kg every two days, day 13 | – | tumour volume | 189 mm3 and 523 mm3 and 241 mm3 and 51.7 mm3 and 279 mm3 |
| CN1CCC[C@]1(C)/C=C/S(=O)(=O)NC(=O)Nc1c2c(cc3c1CCC3)CCC2 | – | human, whole blood ex vivo | 250 mg single dose, 6 h, single ascending dose, with: LPS and ATP | – | IL-18 inhibition | 104% |
| CC(=O)[O-].O.O.O.O.[Ni+2].[O-]c1ccc(Br)cc1C=NCCN1CCOCC1 | nitric oxide scavenging | – | 40 µM | – | inhibition | 15.3% |
| CN(CCC#N)c1nc(NCC[C@H]2CCCN2C)nc2sc(-c3ccccc3)cc12 | force-pCa relationship | C57BL/6N mice, skinned left ventricular papillary fibres | 30 µM, 30 min, DMSO -2.459 | – | Hill slope | -3.33 |
| CC(C)[C@H](NC(=O)[C@H](CC(=O)O)NC(=O)[C@@H](NC(=O)[C@H](Cc1c[nH]c2ccccc12)NC(=O)[C@H](CCC(=O)O)NC(=O)[C@H](C)NC(=O)[C@H](CC(=O)O)NC(=O)CNC(=O)[C@H](Cc1ccc(O)cc1)NC(=O)[C@H](Cc1ccc(OP(=O)(O)O)cc1)NC(=O)[C@H](Cc1ccc(O)cc1)NC(=O)CCNC(=O)c1ccc(C(=O)[O-])c(-c2c3ccc(=[N+](C)C)cc-3oc3cc(N(C)C)ccc23)c1)C(C)C)C(=O)N[C@@H](CO)C(=O)O | toluidine blue staining | ApoE-/- mice, plaque | dose not given, 21 days | – | necrotic core area | 34.6 ± 2.46% |

Some of these lines once more:
| Compound | test | test system | conditions | how to read | endpoint | value |
| --- | --- | --- | --- | --- | --- | --- |
| O=[N+]([O-])[O-].O=c1c(C=NN=C([S-])Nc2ccccc2)coc2ccccc12.[Cu+2].c1ccc(-c2ccccn2)nc1 | DNA cleavage | supercoiled pUC19 DNA | 100 µM, 4 h, 37 °C, no reducing agent, with: DNA 40 µM | – | nicked circular DNA form | 10% |
| COc1ccc(C(=O)CCc2cc(C(CCc3ccc(O)cc3OC)c3ccc(O)cc3)c(O)cc2OC)cc1 (racemic) | – | human blood | 10 µM, with: A23187 | – | PGD2 level | 4 ± 4 pg/mL |
